# Measurements collected from several papers.
# A part holds a random share of what one study measured. Changes are numbered by the printed parent chain.

# Sample 1
# Target: ABI1, truncated, D143A, DHFR fusion (Arabidopsis thaliana)
# Method: DHFR PCA, deep sequencing
# Matrix: yeast
# Setting: methotrexate growth selection, single substitutions
# Added: (+)-ABA 4.8 µM
# Relative to: wild-type fitted maximum
# Reading: higher = stronger binding
# Starting sequence: PYL1, truncated, DHFR fusion (Arabidopsis thaliana); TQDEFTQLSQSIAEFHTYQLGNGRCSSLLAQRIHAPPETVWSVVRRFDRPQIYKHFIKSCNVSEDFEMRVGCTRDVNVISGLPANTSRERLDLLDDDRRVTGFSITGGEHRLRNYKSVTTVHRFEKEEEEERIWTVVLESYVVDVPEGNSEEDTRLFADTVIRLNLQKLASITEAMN
Substitution,relative binding score
G23Y,25.3%
R45C,14.5%
Q51I,-17.7%
A30N,27.4%
S26M,47.4%
T160R,18.6%
R99F,87.6%
D75Q,82.3%
S27H,62.4%
T135A,21%
C72N,54.8%
L20K,77.7%
E129T,74.2%

# Sample 2
# Target: CCNB1, cyclin fold, Cln2 fusion (human)
# Method: yeast growth competition, sequencing
# Matrix: yeast
# Setting: strong parent motif
# Relative to: not given
# Reading: higher = stronger binding
# Starting sequence: PKN2 docking peptide (human); VSAVRKLDFSDTM; partner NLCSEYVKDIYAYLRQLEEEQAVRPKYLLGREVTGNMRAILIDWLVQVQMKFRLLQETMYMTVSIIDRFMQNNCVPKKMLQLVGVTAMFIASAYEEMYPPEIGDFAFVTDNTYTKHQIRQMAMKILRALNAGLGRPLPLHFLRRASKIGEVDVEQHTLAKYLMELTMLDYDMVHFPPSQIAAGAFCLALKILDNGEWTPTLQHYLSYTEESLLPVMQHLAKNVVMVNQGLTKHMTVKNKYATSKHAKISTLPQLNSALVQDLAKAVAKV
Substitution,normalised enrichment score
VAAVRKLDFSDTM [S2A],2.76
VSAVRKLDFSPTM [D11P],3.41
VSAVRRLDFSDTM [K6R],4.41
VSAVRKLDISDTM [F9I],0.585
VSAVRKLVFSDTM [D8V],2.83
VSAVRKLDFSTTM [D11T],2.7
VSAERKLDFSDTM [V4E],0.374
VSSVRKLDFSDTM [A3S],1.44
VSAVRKLDFSGTM [D11G],2.88
VSAGRKLDFSDTM [V4G],0.0405
VSAVYKLDFSDTM [R5Y],0.543
VSAVRKLDNSDTM [F9N],0.295
VSAVRKLDFSNTM [D11N],2.92
VIAVRKLDFSDTM [S2I],2.64
VSAVRKLDPSDTM [F9P],0.05
VSALRKLDFSDTM [V4L],0.44
VSAVRKLDFSDNM [T12N],4.3
VSAVRKSDFSDTM [L7S],0.356
VSAVRKLPFSDTM [D8P],0.846
VSAVRKLDKSDTM [F9K],0.445
VSAVRKLDFADTM [S10A],3.52
VMAVRKLDFSDTM [S2M],2.87
VSAVIKLDFSDTM [R5I],1.68
VSAVPKLDFSDTM [R5P],0.185
VSAVRKLIFSDTM [D8I],2.48

# Sample 3
# Target: RNA binding protein fox-1 homolog 2, RRM domain, GST-SBP tag (RBFOX2, Homo sapiens, UniProt O43251-10, residues 100-194)
# Method: RNA Bind-n-Seq
# Form: RNA
# Matrix: in vitro
# Tested at: 365 nM
# Setting: natural RNA segment, single round, ends assumed
# Relative to: no-protein control
# Reading: higher = stronger binding
# Construct (chain): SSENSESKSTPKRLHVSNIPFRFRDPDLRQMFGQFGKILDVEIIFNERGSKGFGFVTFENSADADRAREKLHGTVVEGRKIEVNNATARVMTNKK
Strand,RBNS enrichment (R)
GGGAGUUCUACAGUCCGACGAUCGCCAGACCUUAACCAAAGAUGCUGAGAUACAGCAUUCUGUCCCCCCUGCCCUAGAAACUCCAUAAAUGCUGUCACAACCCUAUCAUCGCUGAUGCUUUCUGCAUGUCAGCUGGAAUUCUCGGGUGCCAA,0.482
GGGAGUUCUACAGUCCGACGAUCGAAAAACAAAUGGCCUCAACUUGAUCUUACCUGAGUAACCAAGGCUGCUUUUGCUUUGGGUACAGCUAUUUAGUUAGUUGUGUUACAAAGAAUUAUUUUCUGAGAGAAUCUGGAAUUCUCGGGUGCCAA,0.346
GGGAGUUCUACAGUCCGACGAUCGUGCCUUUUACAUGUUCUAUUUUGUAUCCUAAUGACAGAAUGAAUAAACCUCUUUAUAUUUGCACAAGAGGACUCUUGUCUGUCAGCACUUCUGAGGGUGGAGUUUGUGAUGGAAUUCUCGGGUGCCAA,1.16
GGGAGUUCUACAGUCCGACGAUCUGUGUAAUUUAAUAGUAGCAUUCUGGAGUAGAUUCUUUUUUUGUAUUCUGGCCUUGGAAUACUUUAAUUCCGGACCAAAAGAGGUCAAUUUUGUGAGUAUUGCCUAUUAAUGGAAUUCUCGGGUGCCAA,0.607
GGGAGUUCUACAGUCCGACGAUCGAGAGGAGCAGUUCAGUUUACAAAACAAGUGCAAAUUACCAAACUCAAAGCUUAUUUGAGUAGAAUGGGCUCAUGGGCAAUGUGAUGUUCCCUGUUAACCUUCUGUUACUUGGAAUUCUCGGGUGCCAA,0.508
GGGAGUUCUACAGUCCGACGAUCAGGAAUCUGUUGAACACAGCGACCAGAUGACCUUCCAUUUCACCGGCGGCAGCAGUUUCAGCGUGCAGUUCCCAAACCCCAAAGCUGACCCUGCGCCCCAUUUGAAUACGUGGAAUUCUCGGGUGCCAA,0.201
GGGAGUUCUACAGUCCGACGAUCCCUACAAAUACCUGGAGCAGAUGCAGAUUUAGUGGCAGGGAGCGCGGCAGCCCUGGCGGAGGGAUGCAGGUGGGCCGGAAGAUCCCACGAUUCCGAUCGACUGCCAAGCAUGGAAUUCUCGGGUGCCAA,1.31
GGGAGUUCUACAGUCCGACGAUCGCACUAAAGGGCCAGUACCAGUGAGUGGCCCCACCUGUGUCCCCGAUGCUGACCUCACCUGGUCCUCCGCCUACUGUCCCUCUCAGUGCCUUCUCUCAGCUCCCAGGCCAUGGAAUUCUCGGGUGCCAA,0.337

# Sample 4
# Target: Prothrombin, mature alpha-thrombin (F2, Homo sapiens, UniProt P00734)
# Method: aptamer microarray, sandwich
# Form: DNA with 2'F-ANA
# Matrix: in vitro
# Tested at: 200 nM
# Setting: whole 15-mer aptamer, many near background
# Added: Cy3 exosite-II aptamer, 400 nM
# Reading: higher = stronger binding
# Strand: GGTTGGTGTGGTTGG
Modification,mean fluorescence intensity [a.u.]
2'F-ANA at 3 4 7 9 10 12 14,249
2'F-ANA at 1 2 3 4 6 8 9 12,365
2'F-ANA at 1 6 7 10 11 14 15,53.7
2'F-ANA at 3 4 8 10 11 14,218
2'F-ANA at 1 3 6 7 8 14,107
2'F-ANA at 1 2 3 6 7 8 10 11 12,92
2'F-ANA at 1 2 3 5 6 7 8 9 10 12 14 15,102
2'F-ANA at 2 3 5 7 8 9 10,57.8
2'F-ANA at 1 3 5 7 8 9 12 13 14 15,47.9
2'F-ANA at 1 5 10 14 15,52.4
2'F-ANA at 1 5 7 10 11 13,46.2
2'F-ANA at 3 5 6 7 8 12 13 14 15,59.2
2'F-ANA at 1 4 6 8 9 11 12 14 15,55.2
2'F-ANA at 4 6 7 9 10 13 14 15,69.2
2'F-ANA at 3 4 5 7 8 9 10 14,47.7
2'F-ANA at 1 2 7 8 9 12 13 15,281
2'F-ANA at 2 5 8 12 14,47.3
2'F-ANA at 2 4 5 9 11 12,127
2'F-ANA at 1 2 3 5 6 7 8 9 10 11 12,53.1
2'F-ANA at 2 5 8 9 11 12 14,51.5
2'F-ANA at 1 5 7 8 9 10,46.5
2'F-ANA at 7 11 12 15,810
2'F-ANA at 1 14,56.2
2'F-ANA at 1 5 7 9 12 15,108

# Excerpt of the above (sample 3):
Strand,RBNS enrichment (R)
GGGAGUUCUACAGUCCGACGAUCGCCAGACCUUAACCAAAGAUGCUGAGAUACAGCAUUCUGUCCCCCCUGCCCUAGAAACUCCAUAAAUGCUGUCACAACCCUAUCAUCGCUGAUGCUUUCUGCAUGUCAGCUGGAAUUCUCGGGUGCCAA,0.482
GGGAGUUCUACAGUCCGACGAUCGAAAAACAAAUGGCCUCAACUUGAUCUUACCUGAGUAACCAAGGCUGCUUUUGCUUUGGGUACAGCUAUUUAGUUAGUUGUGUUACAAAGAAUUAUUUUCUGAGAGAAUCUGGAAUUCUCGGGUGCCAA,0.346
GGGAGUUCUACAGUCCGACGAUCGUGCCUUUUACAUGUUCUAUUUUGUAUCCUAAUGACAGAAUGAAUAAACCUCUUUAUAUUUGCACAAGAGGACUCUUGUCUGUCAGCACUUCUGAGGGUGGAGUUUGUGAUGGAAUUCUCGGGUGCCAA,1.16
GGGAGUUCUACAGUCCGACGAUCUGUGUAAUUUAAUAGUAGCAUUCUGGAGUAGAUUCUUUUUUUGUAUUCUGGCCUUGGAAUACUUUAAUUCCGGACCAAAAGAGGUCAAUUUUGUGAGUAUUGCCUAUUAAUGGAAUUCUCGGGUGCCAA,0.607
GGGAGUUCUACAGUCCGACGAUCGAGAGGAGCAGUUCAGUUUACAAAACAAGUGCAAAUUACCAAACUCAAAGCUUAUUUGAGUAGAAUGGGCUCAUGGGCAAUGUGAUGUUCCCUGUUAACCUUCUGUUACUUGGAAUUCUCGGGUGCCAA,0.508
